Assay results from different studies.
Each line is one published result; not all experiments were run side by side. Several values in a cell are separate wells, animals, samples, runs or records. Numbers after ± are the reported error.
UCHL1: Ubiquitin carboxyl-terminal hydrolase isozyme L1 (UCHL1, Homo sapiens, UniProt P09936)
BEST1: BEST1 (Homo sapiens, UniProt O76090)
T1: RNA aptamer (Homo sapiens); chain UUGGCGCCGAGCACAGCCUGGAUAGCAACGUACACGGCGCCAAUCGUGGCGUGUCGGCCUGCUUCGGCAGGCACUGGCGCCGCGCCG; chain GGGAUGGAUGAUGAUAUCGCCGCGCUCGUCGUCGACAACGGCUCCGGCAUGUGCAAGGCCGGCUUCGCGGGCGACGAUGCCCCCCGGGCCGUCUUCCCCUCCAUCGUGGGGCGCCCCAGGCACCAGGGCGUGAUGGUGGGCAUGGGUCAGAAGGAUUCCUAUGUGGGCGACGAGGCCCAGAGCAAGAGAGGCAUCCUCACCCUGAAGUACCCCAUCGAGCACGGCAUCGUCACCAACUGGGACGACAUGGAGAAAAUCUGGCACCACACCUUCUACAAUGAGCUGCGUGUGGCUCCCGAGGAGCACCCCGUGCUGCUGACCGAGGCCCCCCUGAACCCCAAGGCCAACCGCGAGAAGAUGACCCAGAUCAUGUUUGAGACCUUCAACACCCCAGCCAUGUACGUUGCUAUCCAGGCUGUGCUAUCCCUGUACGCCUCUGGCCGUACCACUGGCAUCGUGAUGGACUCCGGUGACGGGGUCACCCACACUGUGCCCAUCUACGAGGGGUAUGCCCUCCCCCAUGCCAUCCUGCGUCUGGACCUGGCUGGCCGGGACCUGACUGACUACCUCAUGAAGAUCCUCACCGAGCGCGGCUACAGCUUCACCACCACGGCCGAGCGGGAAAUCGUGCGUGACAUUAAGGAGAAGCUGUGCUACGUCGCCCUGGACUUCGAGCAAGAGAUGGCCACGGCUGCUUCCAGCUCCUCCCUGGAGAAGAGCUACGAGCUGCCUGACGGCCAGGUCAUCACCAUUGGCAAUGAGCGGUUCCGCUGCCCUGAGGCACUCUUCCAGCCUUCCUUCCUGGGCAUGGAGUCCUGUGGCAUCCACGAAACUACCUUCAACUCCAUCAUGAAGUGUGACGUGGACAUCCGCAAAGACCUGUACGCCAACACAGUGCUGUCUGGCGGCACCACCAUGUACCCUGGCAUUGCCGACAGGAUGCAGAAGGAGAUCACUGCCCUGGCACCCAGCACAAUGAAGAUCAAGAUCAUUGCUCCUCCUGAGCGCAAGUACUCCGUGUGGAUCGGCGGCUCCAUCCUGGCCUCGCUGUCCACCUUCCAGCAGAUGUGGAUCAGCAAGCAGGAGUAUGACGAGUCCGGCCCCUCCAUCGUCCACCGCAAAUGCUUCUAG

Compound	target	assay	test system	conditions	scale	endpoint	value
N#CC(=Cc1cccc([N+](=O)[O-])c1)C(=O)NCc1ccccc1	UCHL1	covalent, intact protein LC-MS		12.5 µM		labelling	32.8%
CC(Cc1c(Cl)cccc1Cl)NS(=O)(=O)c1ccoc1C(=O)O (stereo not shown)	malate dehydrogenase	enzyme activity, inhibitor		200 µM, pH 7.0, 1% DMSO, aggregation counter-screen		remaining activity	76%
Nc1ncnc2c1ncn2[C@@H]1O[C@H](CO[P@](=O)(O)O[P@](=O)(O)O[P@@](=O)(O)S)[C@@H](O)[C@H]1O	GUK1 (Homo sapiens, UniProt Q16774, S18A)	binding, ITC				ΔH	-6.4 ± 0.29 kcal/mol
Cc1cc(Oc2ncccc2CN2CCN(CCc3ccccc3)CC2)ccc1-c1c(C)c(=O)[nH]c(=O)n1C	ADRA2C (Homo sapiens, UniProt P18825)	binding, radioligand binding		added: [3H]rauwolscine	baseline: Ki alpha2B over Ki alpha2C	selectivity ratio	15
CCCC[C@H](NC(=O)[C@H](C)c1c(C)[nH]c2ccc(O)cc12)c1ncc(-c2cc3ccccc3nc2OC)[nH]1	PTGER1 (Homo sapiens, UniProt P34995)					Hill coefficient	0.9
Cc1cc(F)c(NS(=O)(=O)c2cc(Cl)cc(Cl)c2O)cc1[N+](=O)[O-]	malate dehydrogenase	enzyme activity, inhibitor		200 µM, pH 7.0, 1% DMSO, aggregation counter-screen		remaining activity	78%
CCOc1ccccc1NC(=O)C(C#N)=Cc1c(F)cccc1F	UCHL1	covalent, intact protein LC-MS		12.5 µM		labelling	18.3%
O=C(NC1CCC1)c1ccc2nc(-c3cccc(NS(=O)(=O)NCCN4CCCCC4)c3)cn2c1	PIK3CA (Homo sapiens, UniProt P42336, E542K)	enzyme activity		10 µM		remaining activity	96%
O=C(O)c1ccc(O)cc1	BEST1	whole-cell patch clamp	HEK293 transiently expressing channel	concentration not given, membrane potential -40 mV		current density	-17.1 pA/pF and -15.5 pA/pF and -9.82 pA/pF and -11.6 pA/pF and -13.4 pA/pF and -16.8 pA/pF and -8.07 pA/pF
CO[C@H]1O[C@H](COS(=O)(=O)O)[C@@H](O[C@@H]2O[C@@H](C(=O)O)[C@@H](O[C@H]3O[C@H](COS(=O)(=O)O)[C@@H](O[C@@H]4O[C@H](C(=O)O)[C@@H](O[C@H]5O[C@H](COS(=O)(=O)O)[C@@H](O)[C@H](O)[C@H]5NS(=O)(=O)O)[C@H](O)[C@H]4O)[C@H](OS(=O)(=O)O)[C@H]3NS(=O)(=O)O)[C@H](O)[C@H]2OS(=O)(=O)O)[C@H](O)[C@H]1NS(=O)(=O)O	Beta-2-glycoprotein 1, domain V (APOH, Homo sapiens, UniProt P02749, V266L)	isothermal titration calorimetry		concentration not given, 298 K, added: 50 mM NaCl		binding enthalpy ΔH	-10.3 ± 0.188 kcal/mol
Cn1ncc(S(=O)(=O)NCc2ccc(S(=O)(=O)NC3CC3)cc2)c1C(=O)O	malate dehydrogenase	enzyme activity, inhibitor		200 µM, pH 7.0, 1% DMSO, aggregation counter-screen		remaining activity	128%
c1coc(-c2n[nH]cc2-c2ccnc3ccccc23)c1	Extracellular signal-regulated kinase 1 (CEK1, Candida albicans, UniProt Q5A1D3)	kinase binding, MIB/MS competition	Candida albicans lysate	10 µM	baseline: DMSO, negative = stronger binding	log2 fold change	-0.19
C#CCCC1(CC[C@H](NC(=O)NCCCCCCNC(=O)NCCNC(=O)COc2cccc([C@@H](CCc3ccc(OC)c(OC)c3)OC(=O)[C@@H]3CCCCN3C(=O)C(=O)C(C)(C)CC)c2)C(N)=O)N=N1.O=C(O)C(F)(F)F	FKBP1A (Homo sapiens, UniProt P62942)	photoaffinity labeling, in-gel fluorescence, measured: Alexa Fluor 647 click label		0.4 µM, UV irradiation 365 nm	baseline: probe over FKBP12 signal, higher = more labeling	normalized labeling ratio	2.2
CC=C(C#N)C(=O)N1CCC[C@@H](n2nc(-c3ccc(Oc4ccccc4)cc3)c3c(N)ncnc32)C1	BTK (Homo sapiens, UniProt Q06187)	fluorescence competition		room temperature		residence time	31.8 ± 7.8 min
CCN(c1ccccc1)S(=O)(=O)c1ccc(Cl)c(C(=O)Nc2ccccc2N2CCN(C)C2=O)c1	N-myristoyltransferase (Cryptosporidium parvum, UniProt Q5CV46)	enzyme activity, inhibitor			baseline: HsNMT1 IC50 over target IC50	selectivity ratio	~5 fold
O=C(O)C1=CCNCC1	BEST1	whole-cell patch clamp	HEK293 transiently expressing channel	concentration not given, membrane potential -20 mV		current density	-26.6 pA/pF and -11.8 pA/pF and -5.01 pA/pF and -5.9 pA/pF and -15.3 pA/pF and -5.02 pA/pF
COc1cc2c(c(OC)c1OC)-c1ccc(OC)c(=O)cc1[C@@H](NC(C)=O)CC2	Voltage-dependent P/Q-type calcium channel subunit alpha-1A (Homo sapiens, UniProt O00555)	ion current, antagonist, automated patch clamp				IC30	> 30 µM

Compound	target	assay	test system	conditions	scale	endpoint	value
Cc1ccc(C(=O)Nc2ccc3ccccc3c2)o1	Otop1 (Mus musculus, UniProt Q80VM9)	proton current, whole-cell patch clamp	cells expressing mouse Otop1	5 µM, pH 6.0		peak current ratio Ip2/Ip1	1.61 and 1.56 and 1.24 and 1.57 and 1.8 and 1.87
COc1cccc2c1C(=O)c1c(O)c3c(c(O)c1C2=O)C[C@@](O)(C(=O)CO)C[C@@H]3O[C@H]1C[C@H](N)[C@H](O)[C@H](C)O1	DNA topoisomerase I (calf thymus)	enzyme activity, inhibitor	MDA-MB-231	50, 100, 500 ppm, 30 min, 37 °C		geometric mean inhibition	75.9%
CC(=O)N1CCC[C@H]1C(=O)NCCNC(=O)Cn1[nH]c(=O)c2ccccc2c1=O	TNKS (Homo sapiens, UniProt O95271)	enzyme activity, inhibitor				ligand efficiency	0.25
Cc1cc2c(NC(=O)c3cccc(C(=O)O)c3)cccc2nn1	Bromodomain-containing protein 4, BD1 (BRD4, Homo sapiens, UniProt O60885)	binding, BROMOscan competition binding			baseline: Kd CBP over Kd BRD4 bromodomain 1	selectivity ratio	0.03
COc1cc([C@@H]2c3cc4c(cc3[C@@H](O[C@@H]3O[C@@H]5CO[C@@H](C)O[C@H]5[C@H](O)[C@H]3O)[C@H]3COC(=O)[C@H]23)OCO4)cc(OC)c1O	human CMG helicase	in vitro		500 µM		helicase activity	no effect
Nc1ncnc2c1ncn2[C@@H]1O[C@H](COP(=O)(O)CP(=O)(O)OP(=O)(O)O)[C@@H](O)[C@H]1O	P2X purinoceptor 1 (P2RX1, Homo sapiens, UniProt P51575, E122A)	saturation binding	HEK293	1 nM		specific binding	10 CCPM and 11.5 CCPM
CCCCC[C@H](O)/C=C/[C@H]1CCC(=O)[C@@H]1C/C=C\CCCC(=O)O	PTGER1 (Homo sapiens, UniProt P34995, H88A)	IP1 accumulation, agonist	AD293	mutant H88A	baseline: wild type	span	89.5 ± 3.47%
CN(CCO)c1cc2sc(/C=C(\C#N)c3ccc(C#N)cc3)cc2s1	T1, RNA aptamer (Homo sapiens)	fluorescence activation				binding	binds
Nc1nc2c(ncn2[C@@H]2O[C@@H]3COP(=O)(O)O[C@H]4[C@@H](O)[C@H](n5cnc6c(=O)[nH]c(N)nc65)O[C@@H]4COP(=O)(O)O[C@H]3[C@H]2O)c(=O)[nH]1	Cell cycle histidine kinase CckA, CA domain (Caulobacter vibrioides, UniProt Q9X688)	binding, ITC		12 °C, added: ADP 5 mM		-TΔS	-8.3 kcal/mol
Cc1nc(CSc2nc(SCc3ccc(C(C)C)cc3)nc(=O)[nH]2)cs1	DNA topoisomerase 2-alpha, ATPase domain (TOP2A, Homo sapiens, UniProt P11388)	1H STD NMR, measured: H1' and H5' protons		protein to ligand ratio 100		STD amplification factor	1.57
CC(=O)c1cccc(S(=O)(=O)N2CCN(C(=O)CCl)CC2)c1	UCHL1	covalent, intact protein LC-MS		12.5 µM		labelling	13.1%
COc1cccc2c(Nc3ccc4[nH]c(C(=O)N/N=C/c5ccc(SC)cc5)cc4c3)cc(C)nc12	HNF4A (Homo sapiens, UniProt P41235)	reporter gene, Gal4 hybrid reporter		3 µM	baseline: vehicle	activation	1 fold
N#CC(=Cc1csnn1)C(=O)Nc1ccc(Oc2ccccc2)cc1	UCHL1	covalent, intact protein LC-MS		12.5 µM		labelling	41.2%
CC[C@H](C)[C@H](NC(=O)[C@H](CO)NC(=O)[C@@H](N)CC(C)C)C(=O)N[C@H](C(=O)N[C@@H](CC(N)=O)C(=O)N[C@@H](Cc1ccccc1)C(=O)N[C@@H](CCC(=O)O)C(=O)N[C@@H](CCCCN)C(=O)N[C@@H](CC(C)C)C(=O)O)[C@@H](C)CC	ERAP2 (Homo sapiens, UniProt Q6P179)	substrate				Km	10.4 µM
CC(C)N(C)c1ccc(NS(=O)(=O)c2cc(Cl)cc(Cl)c2O)cc1F	malate dehydrogenase	enzyme activity, inhibitor		200 µM, pH 7.0, 1% DMSO, aggregation counter-screen		remaining activity	110%
C=CC(=O)N1CCC(COCC(=O)N2CCN(c3nc(-c4cnc(N)nc4C(F)F)nc(N4CCOC[C@@H]4C)n3)CC2)CC1	PAK1 (Homo sapiens, UniProt Q13153)	KINOMEscan		1 µM		remaining binding	100%
CC[C@@H]1[C@H](F)C(=O)N[C@@H]1COc1nccc2cc(C(N)=O)c(OC)cc12	PTK2B (Homo sapiens, UniProt Q14289)	ATP probe binding, KiNativ profiling, measured: activation loop probe site	THP-1 cell lysate	0.01 mM		inhibition	-0.9%

Repeated from above:
Compound	target	assay	test system	conditions	scale	endpoint	value
CC(=O)N1CCC[C@H]1C(=O)NCCNC(=O)Cn1[nH]c(=O)c2ccccc2c1=O	TNKS (Homo sapiens, UniProt O95271)	enzyme activity, inhibitor				ligand efficiency	0.25
Cc1cc2c(NC(=O)c3cccc(C(=O)O)c3)cccc2nn1	Bromodomain-containing protein 4, BD1 (BRD4, Homo sapiens, UniProt O60885)	binding, BROMOscan competition binding			baseline: Kd CBP over Kd BRD4 bromodomain 1	selectivity ratio	0.03
